# Assay results gathered from unrelated publications.
# A part holds a random share of what one study measured.
# Sequence of UniProt Q6PHR2 (whole entry, looked up): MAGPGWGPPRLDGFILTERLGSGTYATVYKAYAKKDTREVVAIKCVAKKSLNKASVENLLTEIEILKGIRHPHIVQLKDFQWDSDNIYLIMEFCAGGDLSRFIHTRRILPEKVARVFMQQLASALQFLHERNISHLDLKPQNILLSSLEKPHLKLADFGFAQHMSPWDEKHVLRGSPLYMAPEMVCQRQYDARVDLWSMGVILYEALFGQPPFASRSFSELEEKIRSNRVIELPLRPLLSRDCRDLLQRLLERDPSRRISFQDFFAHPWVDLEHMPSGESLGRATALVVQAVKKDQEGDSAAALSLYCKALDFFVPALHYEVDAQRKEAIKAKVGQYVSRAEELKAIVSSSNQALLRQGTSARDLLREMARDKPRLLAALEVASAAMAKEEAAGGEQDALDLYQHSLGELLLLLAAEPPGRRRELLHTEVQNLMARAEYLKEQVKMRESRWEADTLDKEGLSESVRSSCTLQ
# Sequence of UniProt Q00532 (whole entry, looked up): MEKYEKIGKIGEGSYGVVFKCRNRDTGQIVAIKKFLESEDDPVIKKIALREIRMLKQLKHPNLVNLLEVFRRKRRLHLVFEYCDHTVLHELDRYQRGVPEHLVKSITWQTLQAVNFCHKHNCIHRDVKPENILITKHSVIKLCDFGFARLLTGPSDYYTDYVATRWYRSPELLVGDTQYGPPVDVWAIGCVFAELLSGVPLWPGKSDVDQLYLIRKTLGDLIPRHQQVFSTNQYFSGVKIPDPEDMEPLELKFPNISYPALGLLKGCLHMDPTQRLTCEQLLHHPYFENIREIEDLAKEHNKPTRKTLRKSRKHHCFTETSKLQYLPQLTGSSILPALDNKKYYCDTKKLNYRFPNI
# Sequence of UniProt P51813 (whole entry, looked up): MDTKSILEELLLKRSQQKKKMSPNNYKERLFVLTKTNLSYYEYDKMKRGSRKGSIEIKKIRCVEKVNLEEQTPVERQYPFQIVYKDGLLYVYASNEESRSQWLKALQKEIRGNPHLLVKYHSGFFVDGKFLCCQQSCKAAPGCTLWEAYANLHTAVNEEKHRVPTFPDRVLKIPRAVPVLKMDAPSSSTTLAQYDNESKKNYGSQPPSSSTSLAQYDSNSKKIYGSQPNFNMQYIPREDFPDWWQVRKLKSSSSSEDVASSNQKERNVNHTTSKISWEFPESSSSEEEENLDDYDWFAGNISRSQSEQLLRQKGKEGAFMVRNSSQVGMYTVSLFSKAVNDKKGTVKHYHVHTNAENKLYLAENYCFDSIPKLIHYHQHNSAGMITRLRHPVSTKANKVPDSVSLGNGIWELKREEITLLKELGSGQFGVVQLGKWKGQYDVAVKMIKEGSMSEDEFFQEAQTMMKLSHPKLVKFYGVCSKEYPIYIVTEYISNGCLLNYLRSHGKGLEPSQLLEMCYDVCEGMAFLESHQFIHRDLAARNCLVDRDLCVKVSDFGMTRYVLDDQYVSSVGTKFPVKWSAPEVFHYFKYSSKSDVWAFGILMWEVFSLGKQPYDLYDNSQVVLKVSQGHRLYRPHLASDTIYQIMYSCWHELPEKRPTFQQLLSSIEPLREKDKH
# Sequence of UniProt Q96PY6 (whole entry, looked up): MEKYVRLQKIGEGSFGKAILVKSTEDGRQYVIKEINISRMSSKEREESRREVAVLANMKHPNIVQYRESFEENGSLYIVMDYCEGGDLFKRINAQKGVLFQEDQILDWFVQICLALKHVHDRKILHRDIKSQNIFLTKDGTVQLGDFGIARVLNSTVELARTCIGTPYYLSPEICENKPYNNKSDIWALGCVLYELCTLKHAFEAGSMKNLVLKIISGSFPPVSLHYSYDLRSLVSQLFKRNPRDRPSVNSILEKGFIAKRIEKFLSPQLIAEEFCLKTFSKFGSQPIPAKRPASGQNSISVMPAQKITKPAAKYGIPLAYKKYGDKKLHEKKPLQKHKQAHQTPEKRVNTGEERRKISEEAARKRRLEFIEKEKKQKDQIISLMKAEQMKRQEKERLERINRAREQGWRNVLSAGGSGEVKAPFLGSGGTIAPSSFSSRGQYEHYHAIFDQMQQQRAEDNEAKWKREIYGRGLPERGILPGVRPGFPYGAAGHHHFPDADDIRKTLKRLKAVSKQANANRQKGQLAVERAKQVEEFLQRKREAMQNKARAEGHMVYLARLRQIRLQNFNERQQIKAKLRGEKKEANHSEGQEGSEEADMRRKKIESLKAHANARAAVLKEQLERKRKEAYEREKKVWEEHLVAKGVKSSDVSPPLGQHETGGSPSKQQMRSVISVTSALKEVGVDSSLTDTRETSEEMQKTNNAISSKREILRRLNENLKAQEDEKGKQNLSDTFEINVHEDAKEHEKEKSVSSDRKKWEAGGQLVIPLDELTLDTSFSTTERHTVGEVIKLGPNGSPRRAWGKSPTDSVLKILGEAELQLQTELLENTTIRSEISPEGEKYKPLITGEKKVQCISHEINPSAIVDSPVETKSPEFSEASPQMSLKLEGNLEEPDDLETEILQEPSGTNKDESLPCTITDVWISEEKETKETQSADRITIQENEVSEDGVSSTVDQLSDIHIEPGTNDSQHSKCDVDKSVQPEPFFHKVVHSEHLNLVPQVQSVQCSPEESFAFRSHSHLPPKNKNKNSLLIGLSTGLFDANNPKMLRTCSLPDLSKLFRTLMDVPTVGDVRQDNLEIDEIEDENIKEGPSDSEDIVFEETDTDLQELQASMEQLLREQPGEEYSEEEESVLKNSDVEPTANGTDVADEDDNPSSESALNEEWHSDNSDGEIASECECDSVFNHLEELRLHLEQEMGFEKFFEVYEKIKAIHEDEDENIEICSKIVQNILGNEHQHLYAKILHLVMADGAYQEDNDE
# Sequence of UniProt Q9NRH2 (whole entry, looked up): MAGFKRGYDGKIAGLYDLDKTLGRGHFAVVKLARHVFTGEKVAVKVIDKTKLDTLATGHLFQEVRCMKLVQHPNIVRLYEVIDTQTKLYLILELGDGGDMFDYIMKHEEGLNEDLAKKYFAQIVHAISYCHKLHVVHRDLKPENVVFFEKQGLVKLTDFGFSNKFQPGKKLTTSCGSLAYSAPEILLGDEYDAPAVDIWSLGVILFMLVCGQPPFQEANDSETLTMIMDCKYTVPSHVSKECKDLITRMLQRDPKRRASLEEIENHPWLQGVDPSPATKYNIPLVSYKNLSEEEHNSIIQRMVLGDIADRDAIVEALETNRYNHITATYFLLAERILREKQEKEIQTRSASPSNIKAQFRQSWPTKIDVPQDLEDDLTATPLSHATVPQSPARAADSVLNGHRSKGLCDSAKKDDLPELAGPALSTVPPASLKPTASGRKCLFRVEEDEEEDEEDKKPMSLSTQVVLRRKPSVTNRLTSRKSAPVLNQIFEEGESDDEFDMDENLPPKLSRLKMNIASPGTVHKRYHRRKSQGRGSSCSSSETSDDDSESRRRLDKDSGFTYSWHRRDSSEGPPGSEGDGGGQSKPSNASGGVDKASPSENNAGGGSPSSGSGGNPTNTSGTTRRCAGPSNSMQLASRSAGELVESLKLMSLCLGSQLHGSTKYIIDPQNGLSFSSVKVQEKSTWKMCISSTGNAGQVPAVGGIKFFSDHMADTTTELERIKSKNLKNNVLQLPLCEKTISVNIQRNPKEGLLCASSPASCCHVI
# Sequence of UniProt O75716 (whole entry, looked up): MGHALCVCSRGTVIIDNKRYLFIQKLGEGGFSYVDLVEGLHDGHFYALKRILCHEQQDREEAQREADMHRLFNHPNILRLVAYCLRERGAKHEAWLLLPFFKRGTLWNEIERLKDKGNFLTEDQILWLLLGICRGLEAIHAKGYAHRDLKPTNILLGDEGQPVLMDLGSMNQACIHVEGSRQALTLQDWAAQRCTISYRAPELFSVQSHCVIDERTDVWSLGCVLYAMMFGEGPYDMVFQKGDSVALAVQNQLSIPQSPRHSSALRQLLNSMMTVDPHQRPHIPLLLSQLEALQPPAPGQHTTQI
# Sequence of UniProt P0C264 (whole entry, looked up): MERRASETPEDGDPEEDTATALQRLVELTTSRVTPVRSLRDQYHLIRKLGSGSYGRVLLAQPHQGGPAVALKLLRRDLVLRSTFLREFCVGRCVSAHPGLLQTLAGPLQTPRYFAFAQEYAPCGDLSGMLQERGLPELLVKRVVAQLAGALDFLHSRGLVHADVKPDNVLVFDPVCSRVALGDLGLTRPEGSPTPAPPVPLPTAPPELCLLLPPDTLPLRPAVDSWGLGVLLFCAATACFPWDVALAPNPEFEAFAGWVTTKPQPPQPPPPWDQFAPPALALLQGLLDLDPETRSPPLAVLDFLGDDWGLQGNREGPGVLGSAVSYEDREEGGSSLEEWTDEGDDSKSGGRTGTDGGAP
# Sequence of UniProt P51812 (whole entry, looked up): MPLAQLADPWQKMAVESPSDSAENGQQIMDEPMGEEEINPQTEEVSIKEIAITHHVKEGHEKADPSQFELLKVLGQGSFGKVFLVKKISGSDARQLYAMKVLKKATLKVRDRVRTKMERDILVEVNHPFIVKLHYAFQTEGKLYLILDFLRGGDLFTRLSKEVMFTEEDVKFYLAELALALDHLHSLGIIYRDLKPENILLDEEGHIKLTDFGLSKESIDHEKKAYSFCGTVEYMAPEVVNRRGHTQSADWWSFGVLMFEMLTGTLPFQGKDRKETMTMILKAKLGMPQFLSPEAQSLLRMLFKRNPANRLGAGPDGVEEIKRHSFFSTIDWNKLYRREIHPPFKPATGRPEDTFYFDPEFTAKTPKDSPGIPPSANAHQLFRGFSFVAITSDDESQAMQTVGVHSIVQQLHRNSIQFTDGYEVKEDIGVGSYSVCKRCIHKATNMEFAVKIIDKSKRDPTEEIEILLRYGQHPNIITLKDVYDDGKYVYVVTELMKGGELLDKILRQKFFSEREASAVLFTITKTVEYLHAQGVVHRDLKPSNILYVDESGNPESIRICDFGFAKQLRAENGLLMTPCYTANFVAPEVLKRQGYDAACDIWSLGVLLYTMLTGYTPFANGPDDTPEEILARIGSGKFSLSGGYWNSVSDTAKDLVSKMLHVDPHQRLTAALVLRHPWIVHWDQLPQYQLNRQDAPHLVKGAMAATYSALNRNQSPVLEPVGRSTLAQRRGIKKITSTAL

# Set 1
# Target: Serine/threonine-protein kinase Nek9 (NEK9, Homo sapiens, UniProt Q8TD19)
# Read-out: enzyme activity
# Mode: inhibitor
# Concentration: 0.5 µM
# Baseline: control
# Construct (Q8TD19 1-979): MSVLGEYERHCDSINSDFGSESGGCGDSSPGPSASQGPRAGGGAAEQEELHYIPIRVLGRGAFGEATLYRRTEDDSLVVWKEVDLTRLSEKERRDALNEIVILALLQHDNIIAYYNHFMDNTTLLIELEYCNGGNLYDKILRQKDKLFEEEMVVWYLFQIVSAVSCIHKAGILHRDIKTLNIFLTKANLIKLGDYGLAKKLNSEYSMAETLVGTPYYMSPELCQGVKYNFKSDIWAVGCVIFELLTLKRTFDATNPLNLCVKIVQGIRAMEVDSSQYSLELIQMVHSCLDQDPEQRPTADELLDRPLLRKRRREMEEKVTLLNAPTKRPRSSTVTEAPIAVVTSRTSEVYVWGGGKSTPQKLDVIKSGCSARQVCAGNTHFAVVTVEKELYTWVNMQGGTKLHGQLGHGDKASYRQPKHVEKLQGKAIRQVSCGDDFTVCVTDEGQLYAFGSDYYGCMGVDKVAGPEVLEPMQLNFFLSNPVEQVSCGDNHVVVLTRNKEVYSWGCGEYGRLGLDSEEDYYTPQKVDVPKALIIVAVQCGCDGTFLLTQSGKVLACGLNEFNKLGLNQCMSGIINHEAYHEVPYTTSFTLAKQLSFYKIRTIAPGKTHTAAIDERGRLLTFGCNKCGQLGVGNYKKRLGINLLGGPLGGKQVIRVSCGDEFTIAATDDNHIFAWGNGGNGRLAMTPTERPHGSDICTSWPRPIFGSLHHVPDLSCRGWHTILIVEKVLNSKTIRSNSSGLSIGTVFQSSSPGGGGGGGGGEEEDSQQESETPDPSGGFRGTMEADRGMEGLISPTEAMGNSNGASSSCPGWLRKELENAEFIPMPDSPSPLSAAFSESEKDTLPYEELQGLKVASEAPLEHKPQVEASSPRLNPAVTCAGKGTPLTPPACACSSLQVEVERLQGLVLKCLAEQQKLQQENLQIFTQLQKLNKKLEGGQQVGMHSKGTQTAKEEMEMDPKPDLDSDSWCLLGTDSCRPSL
Structure (SMILES),remaining activity [%]
CCOC(=O)c1c(C)[nH]c(/C=C2\C(=O)Nc3ccccc32)c1C,80.8
Cn1c2ccccc2c2c3c(c4c5ccccc5n(CCC#N)c4c21)CNC3=O,96.9
Cc1nc(-c2ccccc2)c(-c2ccncc2)o1,97.2
Oc1ccc(-c2nc(-c3ccncc3)c(-c3ccc(F)cc3)[nH]2)cc1,99.4
CN(C)c1ccc(C=C2C(=O)Nc3ccccc32)cc1,99.8
OCC(O)CCON=C1C(c2c(O)[nH]c3ccccc23)=Nc2ccccc21 (stereo not drawn),73.6
COc1ccc(OC)c2c(=S)c3ccccc3[nH]c12,95.8
C#Cc1cccc(Nc2ncnc3cc(OCCOC)c(OCCOC)cc23)c1,99.5
Cc1ccc(Nc2nccc(N(C)c3ccc4c(C)n(C)nc4c3)n2)cc1S(N)(=O)=O,95.8
NCCNc1ncc(C(N)=O)c(Nc2cccc(C(F)(F)F)c2)n1,95.4
Cn1sc(=O)n(Cc2ccccc2)c1=O,98.2
COc1ccc(CNC(=O)Nc2ncc([N+](=O)[O-])s2)cc1,89.4
CC(C)[C@H](CO)Nc1nc(Nc2cc(N)cc(Cl)c2)c2ncn(C(C)C)c2n1,69.4
O=C(O)c1ccc2c3c1cccc3c(=O)n1c3ccccc3nc21,94.1
O=C(CCCc1ccc(-c2ccccc2F)cc1)Nc1ccc(O)cc1,92.7

# Set 2
# SMILES: CN1CCN(C(=O)c2ccc(NC(=O)Nc3ccc(N(C)c4ccnc(Nc5ccc(CS(C)(=O)=O)cc5)n4)cc3)cc2)CC1
# Technique: competitive binding panel
# Concentration: 1 µM
# Baseline: vehicle
target,remaining binding
"PIM3 (Homo sapiens, UniProt Q86V86)",100%
"ULK3 (Homo sapiens, UniProt Q6PHR2)",7.6%
"EPHA7 (Homo sapiens, UniProt Q15375)",92%
"STK16 (Homo sapiens, UniProt O75716)",15%
"EGFR (Homo sapiens, UniProt P00533, L858R/T790M)",55%
"NEK1 (Homo sapiens, UniProt Q96PY6)",63%

# Set 3
# Host: human
# Medium: microsomes or S9
# Concentration: 2 µM
# Time: 0.5 h
SMILES,remaining compound [%]
COC(=O)C(O)c1c(C)nc2[nH]c3c(c2c1Cl)CCCC3 (stereo not drawn),60.4
N#Cc1nc(N2CCCC2)nc(N(c2ccccc2)c2ccccc2)n1,20.2
O=C1CC2(CCN(C(=O)CSC34CC5CC(CC(C5)C3)C4)CC2)CN1,2.54
COc1ccc(-c2cn3c(C(=O)N4CCN(C/C=C/c5ccccc5)CC4)csc3n2)cc1,0
Cc1ncc2c(c1O)COC(C)OC2 (stereo not drawn),98.2
O=C(c1ncccn1)N1C2CCC1Cn1c(nnc1-c1ccccc1)C2 (stereo not drawn),> 100
O=c1[nH]c(N2CCN(Cc3ccccc3)CC2)nc(O)c1Cc1ccccc1,39.1
O=C(Cn1nnc(-c2ccc(F)cc2)n1)N[C@H]1C[C@@H]2OCC[C@H]12,79.9
COc1ccc2[nH]cc(CCn3c(N)cc(=O)[nH]c3=O)c2c1,75.1

# Set 4
# Structure (SMILES): CC(C)(O)c1cncc(-c2nc3ccc(F)cc3n2C2CC2)c1
# Read-out: cell-free assay
# Technique: competition with immobilised ligand
# Concentration: 1 µM
target,remaining binding [%]
"CDKL1 (Homo sapiens, UniProt Q00532)",100
"MET (Homo sapiens, UniProt P08581)",100
"PIK3C2B (Homo sapiens, UniProt O00750)",95
"SNRK (Homo sapiens, UniProt Q9NRH2)",86
"SBK3 (Homo sapiens, UniProt P0C264)",77
"EGFR (Homo sapiens, UniProt P00533, G719S)",100
"PKN1 (Homo sapiens, UniProt Q16512)",100
"BMX (Homo sapiens, UniProt P51813)",100
"Ribosomal protein S6 kinase alpha-3, N-terminal kinase domain (RPS6KA3, Homo sapiens, UniProt P51812)",100

# Some of these lines once more (set 1):
Structure (SMILES),remaining activity [%]
O=C(O)c1ccc2c3c1cccc3c(=O)n1c3ccccc3nc21,94.1
Oc1ccc(-c2nc(-c3ccncc3)c(-c3ccc(F)cc3)[nH]2)cc1,99.4
